Measurements from different studies.
Compare with care: the assays were run in different laboratories. ± gives the spread as reported. ≈ marks a conversion by molar mass, not a printed value.
Sequence of UniProt P21729 (whole entry, looked up): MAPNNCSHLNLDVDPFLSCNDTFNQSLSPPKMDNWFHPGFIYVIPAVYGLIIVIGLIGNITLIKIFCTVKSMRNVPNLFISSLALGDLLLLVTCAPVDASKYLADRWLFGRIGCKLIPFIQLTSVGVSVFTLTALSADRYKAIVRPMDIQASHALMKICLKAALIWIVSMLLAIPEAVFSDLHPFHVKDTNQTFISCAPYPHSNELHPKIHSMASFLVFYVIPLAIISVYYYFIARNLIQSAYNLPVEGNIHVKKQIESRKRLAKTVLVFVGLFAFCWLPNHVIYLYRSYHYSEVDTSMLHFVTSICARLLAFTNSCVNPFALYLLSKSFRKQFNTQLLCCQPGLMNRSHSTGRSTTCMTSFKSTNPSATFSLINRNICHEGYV
Sequence of UniProt Q08881 (whole entry, looked up): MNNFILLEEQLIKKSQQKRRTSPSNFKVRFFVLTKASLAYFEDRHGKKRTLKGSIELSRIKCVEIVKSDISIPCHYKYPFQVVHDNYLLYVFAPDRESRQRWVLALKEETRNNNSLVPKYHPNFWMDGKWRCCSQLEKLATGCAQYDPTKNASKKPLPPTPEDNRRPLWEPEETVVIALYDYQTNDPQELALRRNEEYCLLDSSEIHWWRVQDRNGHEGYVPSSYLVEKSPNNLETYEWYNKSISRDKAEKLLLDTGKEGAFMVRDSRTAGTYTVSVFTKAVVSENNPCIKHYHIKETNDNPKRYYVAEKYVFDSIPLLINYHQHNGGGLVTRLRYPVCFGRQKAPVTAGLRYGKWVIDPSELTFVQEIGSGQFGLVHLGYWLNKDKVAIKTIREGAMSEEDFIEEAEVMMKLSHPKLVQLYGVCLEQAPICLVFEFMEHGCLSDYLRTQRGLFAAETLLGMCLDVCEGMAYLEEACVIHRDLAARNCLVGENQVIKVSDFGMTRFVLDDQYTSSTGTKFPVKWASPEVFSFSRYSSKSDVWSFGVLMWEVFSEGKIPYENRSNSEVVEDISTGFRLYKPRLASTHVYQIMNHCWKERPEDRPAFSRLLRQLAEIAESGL

SMILES	tested on	test	test system	conditions	scale	endpoint	result
CC[C@H]1CN2CCc3c([nH]c4cccc(OC)c34)[C@H]2C[C@@H]1/C(=C\OC)C(=O)OC	rabbit anti-mitragynine polyclonal IgG	competitive indirect ELISA		concentration not given	reference: mitragynine	cross-reactivity	8.23%
COc1ccc2c(c1)c1c(C)c3cnccc3c(C)c1n2CCCN1CCN(C)CC1	R1 A-to-G mutant 41-mer DNA	CD thermal melt			reference: no drug	ΔTm	3 °C
CCC(C(=O)OC)C1N=C(c2ccc(Cl)cc2)c2cc(OC)ccc2-n2c(C)nnc21 (stereo not shown)	human BET bromodomains wild type	differential scanning fluorimetry				delta Tm	< 3 °C
CCCNC(=O)[C@H](CC(C)C)NC(=O)[C@H](Cc1c[nH]cn1)NC(=O)CNC(=O)[C@@H](NC(=O)[C@H](C)NC(=O)[C@H](Cc1c[nH]c2ccccc12)NC(=O)[C@H](CCC(N)=O)NC(=O)[C@@H](Cc1ccccc1)NC(=O)CCCCCNC(=O)CN1CCN(CC(=O)O)CCN(CC(=O)O)CCN(CC(=O)O)CC1)C(C)C [indium-111 labelled]	Gastrin-releasing peptide receptor (Mus musculus, UniProt P21729)	biodistribution	CF-1 mice, brain	intravenous, 1 h, unblocked		tissue uptake	0.01 %ID/g
CCCCCCCCC(=O)NCc1ccc(O)c(OC)c1	mAb 5-D8	antibody binding, indirect competitive ELISA		together with: coating antigen hapten 2-OVA		IC50	0.0595 mg/L (≈ 0.203 µM)
COCOC[C@H]1O[C@H](O[C@H]2[C@H](O[C@@H]3O[C@H](CO)[C@@H](O[C@H]4O[C@@H](CN)[C@@H](O)[C@H](O)[C@H]4N)[C@H]3O)[C@@H](O)[C@H](N)C[C@@H]2N)[C@H](N)[C@@H](O)[C@@H]1OCOC	ribosome with mitochondrial A site	luciferase translation, cell-free translation				IC50	> 700 mg/L
N=C(N)NCCC[C@@H]1NC(=O)[C@H](CCCCNC(=O)CC[C@H](NC(=O)CCOCCOCCOCCOCCNC(=O)CN2CCN(CC(=O)O)CCN(CC(=O)O)CCN(CC(=O)O)CC2)C(=O)NCCCC[C@@H]2NC(=O)[C@@H](Cc3ccccc3)NC(=O)[C@H](CC(=O)O)NC(=O)CNC(=O)[C@H](CCCNC(=N)N)NC2=O)NC(=O)[C@@H](Cc2ccccc2)NC(=O)[C@H](CC(=O)O)NC(=O)CNC1=O [indium-111 labelled]			female athymic nude mice, eyes	intravenous, 3 µCi, 4 h, U-87 MG glioma xenograft		tissue uptake	0.62 ± 0.22 %ID/g
C=CCO[C@H]1[C@H](O)[C@@H](N)[C@@H](O[C@H]2[C@H](O[C@@H]3O[C@H](CO)[C@@H](O[C@H]4O[C@@H](CN)[C@@H](O)[C@H](O)[C@H]4N)[C@H]3O)[C@@H](O)[C@H](N)C[C@@H]2N)O[C@@H]1CO	ribosome with mitochondrial A1555G A site	luciferase translation, cell-free translation				IC50	90.9 ± 9.96 mg/L (≈ 139 µM)
CC[C@H](C)[C@@H]1NC(=O)[C@H](Cc2ccc(O)cc2)NC(=O)[C@@H](N)CSSC[C@@H](C(=O)N2CCC[C@H]2C(=O)N2CCC[C@H]2C(=O)NCC(N)=O)NC(=O)[C@H](CC(N)=O)NC(=O)[C@H](CCC(N)=O)NC1=O	oxytocin receptor (Callithrix jacchus)	Ca2+ mobilisation, agonist	CHO cells			Emax	1740 RFU
O=C1c2cc(Cl)ccc2N(Cc2ccccc2)C12CCCC2	acetylcholinesterase			10 µM		remaining activity	92.8 ± 8.99%
CC[C@H](C)[C@H](NC(=O)[C@H](Cc1ccccc1)NC(=O)[C@H](CCC(=O)O)NC(=O)[C@H](CCCCNC(=O)COCC(=O)NCCCOCCOCCOCCCNC(=O)CNC(=O)[C@@H]1CCCN1C(=O)CNC(=O)[C@@H]1CCCN1C(=O)CNC(=O)[C@@H]1CCCN1C(=O)[C@H](CCCCNC(=O)CN(CCN(CCN(CC(=O)O)CC(=O)O)CC(=O)O)CC(=O)O)NC(=O)COCC(=O)NCCCOCCOCCOCCCNC(=O)COCC(=O)NCCOc1ccc(Cl)cc1C(=O)NCCc1ccc(S(=O)(=O)NC(=O)NC2CCCCC2)cc1)NC(=O)[C@H](C)NC(=O)[C@H](C)NC(=O)[C@H](CCC(N)=O)NC(=O)CNC(=O)[C@H](CCC(=O)O)NC(=O)[C@H](CC(C)C)NC(=O)[C@H](Cc1ccc(O)cc1)NC(=O)[C@H](CO)NC(=O)[C@H](CO)NC(=O)[C@@H](NC(=O)[C@H](CC(=O)O)NC(=O)[C@H](CO)NC(=O)[C@@H](NC(=O)[C@H](Cc1ccccc1)NC(=O)[C@@H](NC(=O)CNC(=O)[C@H](CCC(=O)O)NC(=O)[C@H](C)NC(=O)[C@@H](N)Cc1c[nH]cn1)[C@@H](C)O)[C@@H](C)O)C(C)C)C(=O)N[C@@H](C)C(=O)N[C@@H](Cc1c[nH]c2ccccc12)C(=O)N[C@@H](CC(C)C)C(=O)N[C@H](C(=O)N[C@@H](CCCNC(=N)N)C(=O)NCC(=O)N[C@@H](CCCNC(=N)N)C(=O)NCC(N)=O)C(C)C	GLP-1R and SUR1	Eu-ligand saturation binding	βTC3	1 h, 37 °C, high-affinity site		Kd	0.01 µM
c1ccc(CCNC2CCCc3c2[nH]c2ccc(C4CCCCC4)cc32)cc1 (stereo not shown)	MurT/GatD complex, Staphylococcus aureus					lipid II amidation	no effect
COc1ccc(F)cc1S(=O)(=O)Nc1cnc2c(c1)C(=O)NCCO2	alkaline phosphatase	inhibitor	cynomolgus monkey, plasma	oral, dose not given, up to 8 h	reference: vehicle	mean ALP inhibition	increased
CCN(CC)CCOc1ccc(-c2nnn(Cc3ccc(OC)cc3)c2N)cc1	RKIP and MEK1/2	protein interaction, pull-down	HEK293 lysate	10 µM		binding	no effect
O=C1c2cc(Br)ccc2NC12CCCC2	acetylcholinesterase			10 µM		remaining activity	60.9 ± 4.42%
CSCC[C@H](NC(=O)[C@H](CC(C)C)NC(=O)[C@H](Cc1c[nH]cn1)NC(=O)CNC(=O)[C@@H](NC(=O)[C@H](C)NC(=O)[C@H](Cc1c[nH]c2ccccc12)NC(=O)[C@H](CCC(N)=O)NC(=O)CCCCCNC(=O)CNC(=O)CNC(=O)CNC(=O)CSC(C)=O)C(C)C)C(N)=O [technetium-99m labelled]			nude mouse, PC-3 xenograft, spleen	90 min, together with: excess unlabelled conjugate		tissue uptake	0.65 ± 0.13 %ID/g
NC[C@@H]1O[C@H](O[C@H]2[C@@H](O)[C@H](O[C@@H]3[C@@H](O)[C@H](N)C[C@H](N)[C@H]3O[C@H]3O[C@H](CO)[C@@H](OCCCO)[C@H](O)[C@H]3N)O[C@@H]2CO)[C@H](N)[C@@H](O)[C@@H]1O	ribosome with mitochondrial A site	luciferase translation, cell-free translation				IC50	> 700 mg/L

SMILES	tested on	test	test system	conditions	scale	endpoint	result
O=C1c2cc(F)ccc2N(Cc2ccccc2)C12CCCC2	acetylcholinesterase			10 µM		remaining activity	99.1 ± 14.2%
C=C(NC(=O)C(=C)NC(=O)c1csc(C2=NC3c4csc(n4)C4NC(=O)c5csc(n5)C(C(C)(O)C(C)O)NC(=O)C5CSC(=N5)C(=CC)NC(=O)C(C(C)O)NC(=O)c5csc(n5)C3(CC2)NC(=O)C(=C)NC(=O)C(=C)NC(=O)C(C)NC(=O)C(C(C)CC)NC2C=Cc3c(C(C)O)cc(nc3C2O)C(=O)OC4C)n1)C(N)=O (stereo not shown)	20S proteasome			three proteolytic activities	reference: compound over thiostrepton A	IC50 ratio range	≤ 5 fold
CSCC[C@H](NC(=O)[C@H](Cc1ccccc1)NC(=O)CNC(=O)CNC(=O)[C@@H](N)Cc1ccc(O)cc1)C(=O)O	delta opioid receptor (Rana pipiens)					EC50	0.18 µM
CN[C@](C)(C[18F])C(=O)O	A549 tumour model		host not given, liver	1 h, tumour-bearing		tracer uptake	2.8 %ID/g
CC1OCC2OC(OC3C(N)CC(N)C(O)C3OC3OC(CO)C(OC4OC(CN)C(O)C(O)C4N)C3O)C(N)C(O)C2O1 (stereo not shown)	ribosome with mitochondrial A1555G A site	luciferase translation, cell-free translation				IC50	98 ± 39.7 mg/L (≈ 153 µM)
COc1cc(C(=O)NCCOCCOCCOCCNC(=O)c2ccc([18F])nc2)ccc1NC(=O)C1NC(CC(C)(C)C)C(C#N)(c2ccc(Cl)cc2F)C1c1cccc(Cl)c1F (stereo not shown)	SJSA-1 tumour model		host not given, heart	2 h, tumour-bearing		tracer uptake	0.48 %ID/g
NC[C@@H]1O[C@H](O[C@H]2[C@@H](O)[C@H](O[C@@H]3[C@@H](O)[C@H](N)C[C@H](N)[C@H]3O[C@H]3O[C@H](CO)[C@@H](OCC(O)CO)[C@H](O)[C@H]3N)O[C@@H]2CO)[C@H](N)[C@@H](O)[C@@H]1O (stereo partly shown)	Mycobacterium smegmatis ribosome A1408G	translation, cell-free luciferase synthesis				IC50	0.87 ± 0.07 mg/L (≈ 1.26 µM)
CCCCCCC(=O)C(=O)C(O)CO (stereo not shown)	MscS, Escherichia coli	channel gating, patch clamp	giant spheroplasts	1 mM, asymmetric addition		maximal shift of p0.5	20%
CCCC[C@H](NC(=O)CNC(=O)CNC(=O)c1ccc(NN)nc1)C(=O)N[C@H]1CC(=O)NCCCC[C@@H](C(N)=O)NC(=O)[C@H](Cc2c[nH]c3ccccc23)NC(=O)[C@H](CCCNC(=N)N)NC(=O)[C@@H](Cc2ccccc2)NC(=O)[C@H](Cc2c[nH]cn2)NC1=O [technetium-99m labelled]			C57 mouse, B16/F1 melanoma-bearing, skin	intravenous, 24 h		tissue uptake	0.13 ± 0.02 %ID/g
CCO[C@H]1[C@H](O)[C@@H](N)[C@@H](O[C@H]2[C@H](O[C@@H]3O[C@H](CO)[C@@H](O[C@H]4O[C@@H](CN)[C@@H](O)[C@H](O)[C@H]4N)[C@H]3O)[C@@H](O)[C@H](N)C[C@@H]2N)O[C@@H]1CO	ribosome with mitochondrial A site	luciferase translation, cell-free translation				IC50	96.8 ± 4.22 mg/L (≈ 150 µM)
N=C(N)NCCC[C@@H]1NC(=O)[C@H](CCCCNC(=O)CCOCCOCCOCCOCCNC(=O)CN2CCN(CC(=O)O)CCN(CC(=O)O)CCN(CC(=O)O)CC2)NC(=O)[C@@H](Cc2ccccc2)NC(=O)[C@H](CC(=O)O)NC(=O)CNC1=O [indium-111 labelled]			female athymic nude mice, kidney	intravenous, 3 µCi, 0.5 h, U-87 MG glioma xenograft		tissue uptake	10.9 ± 3.96 %ID/g
COCOC[C@H]1O[C@H](O[C@H]2[C@H](O[C@@H]3O[C@H](CO)[C@@H](O[C@H]4O[C@@H](CN)[C@@H](O)[C@H](O)[C@H]4N)[C@H]3O)[C@@H](O)[C@H](N)C[C@@H]2N)[C@H](N)[C@@H](O)[C@@H]1O	Mycobacterium smegmatis ribosome A1408G	translation, cell-free luciferase synthesis				IC50	5.47 ± 1.24 mg/L (≈ 8.29 µM)
Cc1cc2c(cc1Cl)Cc1c(C(=O)NC3C4(C)CCC(C4)C3(C)C)nn(-c3ccc(Cl)cc3Cl)c1-2 (stereo not shown)	cannabinoid receptor CB2 (human)	agonist, western blot	HL-60	0.05 µM, 15 min	reference: vehicle	ERK1/2 phosphorylation	46.4 ± 15.6%
CCCCO[C@H]1[C@H](O)[C@@H](N)[C@@H](O[C@H]2[C@H](O[C@@H]3O[C@H](CO)[C@@H](O[C@H]4O[C@@H](CN)[C@@H](O)[C@H](O)[C@H]4N)[C@H]3O)[C@@H](O)[C@H](N)C[C@@H]2N)O[C@@H]1CO	Mycobacterium smegmatis ribosome A1408G	translation, cell-free luciferase synthesis				IC50	24.3 ± 5.82 mg/L (≈ 36.2 µM)
Cc1c(-c2cccc(C3=NCCN3)c2)oc(-c2cccc(C3=NCCN3)c2)c1C	F21T G-quadruplex DNA	FRET melting competition		1 µM, together with: calf thymus DNA, G4:CT 1:100	reference: without competitor	remaining ΔTm	100%
CC(=O)NC(Cc1ccc(Br)c(Cl)c1)C(=O)N[C@@H](C)C(=O)N1CCC[C@H]1C(=O)N1CCC[C@H]1C(=O)N[C@@H](CCC(=O)O)C(=O)N[C@@H](Cc1c[nH]cn1)C(=O)N[C@@H](CO)C(=O)N[C@H](C(=O)N[C@@H](C)C(N)=O)[C@@H](C)OP(=O)(O)O (stereo partly shown)	ITK (Homo sapiens, UniProt Q08881)	enzyme activity, inhibitor		10 µM		inhibition	0.6%
O=c1c(O)cccn1CCCN1CCN(CCCn2cccc(O)c2=O)CC1	Fe(III)	complex formation				log K110	6.6

Excerpt of the above:
SMILES	tested on	test	test system	conditions	scale	endpoint	result
COc1cc(C(=O)NCCOCCOCCOCCNC(=O)c2ccc([18F])nc2)ccc1NC(=O)C1NC(CC(C)(C)C)C(C#N)(c2ccc(Cl)cc2F)C1c1cccc(Cl)c1F (stereo not shown)	SJSA-1 tumour model		host not given, heart	2 h, tumour-bearing		tracer uptake	0.48 %ID/g
NC[C@@H]1O[C@H](O[C@H]2[C@@H](O)[C@H](O[C@@H]3[C@@H](O)[C@H](N)C[C@H](N)[C@H]3O[C@H]3O[C@H](CO)[C@@H](OCC(O)CO)[C@H](O)[C@H]3N)O[C@@H]2CO)[C@H](N)[C@@H](O)[C@@H]1O (stereo partly shown)	Mycobacterium smegmatis ribosome A1408G	translation, cell-free luciferase synthesis				IC50	0.87 ± 0.07 mg/L (≈ 1.26 µM)
